Results of several laboratories.
Lines come from different studies, so protocols differ. Several values in a cell are separate wells, animals, samples, runs or records.
Target: Activin receptor type-1B (ACVR1B, Homo sapiens, UniProt P36896)

| Structure (SMILES) | observed | mode | method | tested at | reference | endpoint | value |
| --- | --- | --- | --- | --- | --- | --- | --- |
| COc1c(Cl)cccc1Nc1c(-c2ccncc2C#C[C@@]2(C)CCCN2C(=O)/C=C/CN(C)C)[nH]c2c1C(=O)NCC2 | cell-free assay |  | competition with immobilised ligand | 3 µM |  | remaining binding | 91% |
| CNS(=O)(=O)Nc1nccc(Cc2c(C)c3ccc(Oc4ncccc4F)cc3oc2=O)c1F | cell-free assay |  | competition with immobilised ligand | 10 µM |  | remaining binding | 85% |
| NC(=O)C[C@H]1CCc2sc3ncnc(O[C@H]4CC[C@H](N5CCOCC5)CC4)c3c21 | enzyme activity | inhibitor |  | 10 µM |  | inhibition | -2% |
| C=CC(=O)N1CCc2ccc(-n3c(=O)ccc4cnc5ccc(-c6cnn(C)c6)cc5c43)cc21 |  |  | KINOMEscan | 1 µM | DMSO control | remaining binding | 98% |
| C=CC(=O)N1CCCC(n2c(=O)c3ncccc3n(Cc3ccc(Oc4ccccc4)cc3)c2=O)C1 (centres unmarked) | cell-free assay |  | competition with immobilised ligand | 1 µM |  | remaining binding | 72% |
| CNC(=O)C[C@H](Cc1ccc(C#N)cc1)NC(=O)c1cc(-c2ccc(CN[C@H](C)c3ccc(C)cc3)o2)ccc1Cl | enzyme activity | inhibitor |  | 1 µM |  | activity vs control | 92% |
| CC(C)=CC1OC(C)(C)C2C=C3C(=O)C(Cl)=CC(O)C3C3C(O)C4OC4C(=O)C132 (centres unmarked) | cell-free assay |  | competition with immobilised ligand | 10 µM |  | remaining binding | 95% |
| Nc1ncc(-c2cc(-c3cnn(CC(F)(F)F)c3)ncc2F)nc1C(=O)NC1CNCC(F)C1 (centres unmarked) | enzyme activity |  |  | 1 µM | DMSO control | remaining activity | 108% |
| CN1CCN(Cc2ccc(NC(=O)c3cccc(C#Cc4cnc(N)c5ncccc45)c3)cc2C(F)(F)F)CC1 | cell-free assay |  | competition with immobilised ligand | 0.5 µM |  | remaining binding | 100% |
| COc1c(OCCCN2CCOCC2)ccc2c1N=C(NC(=O)c1cnc(N)nc1)N1CCN=C21 | kinase activity | inhibitor |  | 1 µM | untreated control | remaining activity | 116% |
| COc1ccc(NC(=O)Nc2ccc3c(c2)C(=O)N(C(C)CO)CC(C)C(CN(C)Cc2ccc4c(c2)OCO4)O3)cc1 (centres unmarked) | binding |  | competition with immobilised ligand | 10 µM |  | remaining binding | 84% |
| COc1ccc(O)cc1-c1c[nH]c2ncc(-c3cncc(C(=O)N(C)C)c3)cc12 | binding |  | competition with immobilised ligand | 0.2 µM |  | inhibition | -16.4% |
| CNC1C[S+]2CC[S+]3CC[S+](C1)[Ru-4]321([N]=C=S)[n]2c3ccc(OC)cc3c3c4c(c5cc(F)c[n+]1c5c32)C(=O)NC4=O (centres unmarked) |  |  | KinomeScan | 0.1 µM | untreated | remaining binding | 92% |
| COCC12C(=O)NC3C4(C(OC)CC1O)C1CC5(O)C(OC)C(O)C(OC(C)=O)(C1C5OC(=O)c1ccccc1)C3(O)C(OC)C24 (centres unmarked) | kinase activity | inhibitor | ProQinase kinase profiling | 25 µM | control | remaining activity | 105% and 103% |
| COc1cc(Nc2nc(C)cc(-c3cnn4nc(OC)ccc34)n2)cc(C(F)(F)F)c1 |  | inhibitor |  | 1 µM | control | remaining activity | 100% |
| Cc1nc2c(F)cc(-c3nc(Nc4ccc(CNC(=O)CCCCCCC(=O)NO)cc4)ncc3F)cc2n1C(C)C | enzyme activity | inhibitor |  | 1 µM |  | inhibition | 49% |
| CC(=O)N1c2ccc(-c3ccc(CNC(=O)c4cn5cc(-c6cnc(N)nc6)nc(N6CCOCC6)c5n4)cc3)cc2CC[C@@H]1C | binding |  | competition with immobilised ligand | 10 µM |  | remaining binding | 89% |

For quick reference, copied from above:
| Structure (SMILES) | observed | mode | method | tested at | reference | endpoint | value |
| --- | --- | --- | --- | --- | --- | --- | --- |
| CNC(=O)C[C@H](Cc1ccc(C#N)cc1)NC(=O)c1cc(-c2ccc(CN[C@H](C)c3ccc(C)cc3)o2)ccc1Cl | enzyme activity | inhibitor |  | 1 µM |  | activity vs control | 92% |
